Published values gathered from unrelated publications.
Compare with care: the assays were run in different laboratories. ± gives the spread as reported.
UCHL1: Ubiquitin carboxyl-terminal hydrolase isozyme L1 (UCHL1, Homo sapiens, UniProt P09936)
UniProt P09936, sequence (whole entry, looked up): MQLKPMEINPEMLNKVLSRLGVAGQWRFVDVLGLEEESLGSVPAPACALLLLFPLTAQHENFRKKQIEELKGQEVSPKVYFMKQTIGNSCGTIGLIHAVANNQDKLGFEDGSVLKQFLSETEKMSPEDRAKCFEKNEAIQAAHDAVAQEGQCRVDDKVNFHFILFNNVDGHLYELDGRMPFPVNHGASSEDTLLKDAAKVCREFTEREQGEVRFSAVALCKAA
UniProt Q07794, sequence (whole entry, looked up): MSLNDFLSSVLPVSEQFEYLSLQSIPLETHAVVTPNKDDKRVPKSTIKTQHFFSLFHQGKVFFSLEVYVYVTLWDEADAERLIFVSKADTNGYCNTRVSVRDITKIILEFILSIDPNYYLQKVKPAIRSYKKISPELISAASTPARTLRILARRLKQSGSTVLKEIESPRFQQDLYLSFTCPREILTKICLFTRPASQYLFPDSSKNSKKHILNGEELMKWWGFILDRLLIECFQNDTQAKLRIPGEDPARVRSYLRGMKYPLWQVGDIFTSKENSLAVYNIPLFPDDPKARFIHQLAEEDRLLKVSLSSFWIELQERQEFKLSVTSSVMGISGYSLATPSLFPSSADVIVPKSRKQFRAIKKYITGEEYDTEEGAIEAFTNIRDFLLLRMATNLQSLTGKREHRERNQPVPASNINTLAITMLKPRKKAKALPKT

Compound = Cn1nc2c(=O)n(C3CC3)cnc2c1[C@](O)(c1cnc(C(F)(F)F)c(Cl)c1)C(F)(F)F; system = infected humanized SCID mice, blood; setting = 3 mg/kg daily, 6 days; endpoint = AUC(0-last); value = 149 µM·h
Compound = CC(C)NC(=O)COc1cccc(-c2nc(Nc3ccc4[nH]ncc4c3)c3ccccc3n2)c1; system = human male, plasma; setting = oral, 200 mg once daily, day 12, fed, geometric mean, with: dabigatran etexilate; endpoint = AUC(0-last); value = 12000 ng·h/mL
Compound = CC(=O)N(c1ccccc1)c1nc(C=C(C#N)C(=O)NC2CC2)cs1; target or system = UCHL1; test = covalent, intact protein LC-MS; setting = 12.5 µM; endpoint = labelling; value = 9.01%
Compound = COC(=O)N[C@@H](C)CNc1nccc(-c2cn(C(C)C)nc2-c2cc(Cl)cc(NS(C)(=O)=O)c2F)n1; system = human, plasma; setting = oral, 50 mg, single dose alone; scale = geometric mean; endpoint = AUC(0-last); value = 2040 ng·h/mL
Compound = C[C@@H](Oc1ccc(S(C)(=O)=O)cc1C(=O)N1C[C@@H]2C[C@]2(c2cc(C(F)(F)F)on2)C1)C(F)(F)F; system = healthy human volunteers, fasted, plasma; setting = oral, 10 mg single, adjusted geometric mean; endpoint = AUC(0-last); value = 4.03 µM·h
Compound = Cc1cc(Nc2cc3ncccc3c(N[C@@H]3C[C@H]4CC[C@@H](C3)N4CCC#N)n2)n[nH]1; system = human, plasma; setting = 10 mg single dose, mean; endpoint = AUC(0-last); value = 0.777 ng·h/mL
Compound = O=C(c1nc2n(n1)[C@H](c1ccccc1)C[C@@H]2F)C1CC1; test = geometric LS mean; system = human, fasted, plasma; setting = oral, 75 mg single dose; endpoint = AUC(0-last); value = 12900 ng·h/mL
Compound = CCOc1c([C@H](C)n2nc(C)c3c(N)ncnc32)cc(Cl)c(F)c1[C@@H]1CNC(=O)C1; system = human patients, plasma; setting = oral, 10 mg once daily, cycle 1 day 15; endpoint = AUC(0-last); value = 6.91 ± 2.33 µM·h
Compound = CC(C)c1nc(N(C)S(C)(=O)=O)nc(-c2ccc(F)cc2)c1/C=C/[C@@H](O)C[C@@H](O)CC(=O)O; system = human, plasma; setting = oral, 10 mg, with: vepdegestrant 200 mg; endpoint = AUC(0-last); value = 34.7 ng·h/mL
Compound = CC1CN(CCOCCSc2ccc(Cl)cc2)CC(C)O1.O=C(O)C(=O)O (centres unmarked); target or system = Trypanosoma cruzi; test = reporter translation, Renilla luciferase mRNA translation; system = cell-free extract; setting = 40 µM; scale = relative to: DMSO; endpoint = inhibition; value = -6.9%
Compound = O=C1CC(SC2=NCCS2)C(=O)N1c1ccc(Br)cc1 (centres unmarked); target or system = Histone acetyltransferase RTT109, with Vps75 (Saccharomyces cerevisiae, UniProt Q07794); test = enzyme activity, inhibitor, HTS, CPM-based, dose response; endpoint = IC50; value = > 125 µM
Compound = CN(C)C(=O)c1cc2cnc(Nc3ccc(N4CCNCC4)cn3)nc2n1C1CCCC1; system = human, severe renal impairment, plasma; setting = oral, 400 mg, geometric mean; endpoint = AUC(0-last); value = 10800 ng·h/mL
Compound = COc1ccc(CN2CCN(C(=O)CCl)CC2)cc1F.Cl; target or system = UCHL1; test = covalent, intact protein LC-MS; setting = 12.5 µM; endpoint = labelling; value = 22.3%
Compound = N#CCNC(=O)c1ccc(-c2ccnc(Nc3ccc(N4CCOCC4)cc3)n2)cc1; system = healthy human volunteers, plasma; setting = oral, 200 mg single dose, day 1, fasted, given alone; endpoint = AUC(0-last); value = 3140 ng·h/mL
Compound = C[C@H]1CN(C(=O)CC#N)[C@]12CCN(c1ncnc3[nH]ccc13)C2; system = healthy adult humans, plasma; setting = oral, 12 mg single, geometric mean; endpoint = AUC(0-last); value = 389 ng·h/mL
Compound = CC(F)(F)c1cc(F)ccc1-c1sc2cc(O)ccc2c1Oc1ccc(/C=C/C(=O)O)cc1; system = human patients, serum; setting = oral, 200 mg twice daily, cycle 1 day 28, without regard to food, mean; endpoint = AUC(0-last); value = 4890 ng·h/mL
Compound = Cc1noc(C)c1-c1cc(C(O)(c2ccccn2)c2ccccn2)c2nc(C3CC3)[nH]c2c1; system = human male fasted, plasma; setting = oral, 3 mg once daily, cycle 1 day 8; endpoint = AUC(0-last); value = 3740 ng·h/mL
Compound = Cc1cc(C)c(CNC(=O)c2cc(Cl)c3c(c2C)O[C@@](C)([C@H]2CC[C@H](N(C)C)CC2)O3)c(=O)[nH]1; test = measured: total radioactivity; system = human, plasma; setting = oral, 200 mg; endpoint = AUC(0-last); value = 23800 ng eq·h/mL
Compound = COc1ncc(-c2nc3c(n2C(C)C)[C@H](c2ccc(Cl)cc2)N(c2cc(Cl)cn(C)c2=O)C3=O)c(OC)n1; test = LC-MS/MS, noncompartmental; system = human, plasma; setting = oral, 120 mg, cycle 1 day 8, high-dose, geometric mean; endpoint = AUC(0-last); value = 5270 ng·h/mL
Compound = CN(C(=O)C(C)(C)c1cc(C(F)(F)F)cc(C(F)(F)F)c1)c1cnc(N2C[C@H]3COCCN3C[C@H]2CO)cc1-c1ccc(F)cc1[14CH3]; test = LC-MS/MS; system = human, plasma; setting = oral, 120 mg; endpoint = AUC(0-last); value = 6540 ng·h/mL
Compound = CC(C)n1nc(-c2ccc3oc(N)nc3c2)c2c(N)ncnc21; system = human, plasma; setting = oral, 2 mg once daily, cycle 1 day 1; endpoint = AUC(0-last); value = 134 ng·h/mL
Compound = CO[C@H]1C[C@@H]2CC[C@@H](C)[C@@](O)(O2)C(=O)C(=O)N2CCCC[C@H]2C(=O)O[C@H]([C@H](C)C[C@@H]2CC[C@@H](OC(=O)NCCOCCOCCOCCOCCOCCOCCOCCOCCC(=O)N3CCc4cc(Cn5nc(-c6ccc7oc(N)nc7c6)c6c(N)ncnc65)ccc4C3)[C@H](OC)C2)C[C@@H](O)[C@H](C)/C=C(\C)[C@@H](O)[C@@H](OC)C(=O)[C@H](C)C[C@H](C)/C=C/C=C/C=C/1C; system = human patients, plasma; setting = intravenous, 10 mg, cycle 1 day 15, 2 h infusion; endpoint = AUC(0-last); value = 693 ng·h/mL
Compound = Cn1c(=O)oc2ccc(-c3ccc(C[C@@H](C#N)NC(=O)[C@@H]4CNCCCO4)cc3)cc21; system = human, severe renal impairment, plasma; setting = oral, 25 mg single dose, mean; endpoint = AUC(0-last); value = 2750 ng·h/mL
Compound = C[C@@H](N)c1cc(Cl)ccc1Cn1c(=S)[nH]c(=O)c2[nH]ccc21; system = human, both sexes, severe renal impairment, plasma; setting = oral, 2.5 mg single dose, geometric mean; endpoint = AUC(0-last); value = 0.558 µM·h
Compound = C=CC(=O)N(C)CCOc1c(N)ncnc1-c1cc(F)cc(NC(=O)c2ccc(C3CC3)cc2F)c1C; system = human, fasted, whole blood; setting = oral, 60 mg single dose, food effect crossover, adjusted geometric mean; endpoint = AUC(0-last); value = 173 ng·h/mL
Compound = CN1CC[C@@H](c2c(O)cc(O)c3c(=O)cc(-c4ccc(C(F)(F)F)cc4Cl)oc23)[C@@H]1CO; test = noncompartmental; system = human patients, plasma; setting = oral, 100 mg intermittent, cycle 1, after day 1; endpoint = AUC(0-last); value = 3010 ng·h/mL

A few entries again:
Compound = C[C@@H](N)c1cc(Cl)ccc1Cn1c(=S)[nH]c(=O)c2[nH]ccc21; system = human, both sexes, severe renal impairment, plasma; setting = oral, 2.5 mg single dose, geometric mean; endpoint = AUC(0-last); value = 0.558 µM·h
Compound = C=CC(=O)N(C)CCOc1c(N)ncnc1-c1cc(F)cc(NC(=O)c2ccc(C3CC3)cc2F)c1C; system = human, fasted, whole blood; setting = oral, 60 mg single dose, food effect crossover, adjusted geometric mean; endpoint = AUC(0-last); value = 173 ng·h/mL
